Literature values as cited in several papers.
Lines come from different studies, so protocols differ.
B1: CX3CL1, human; sequence looked up; chain QHHGVTKCNITCSKMTSKIPVALLIHYQQNQASCGKRAIILETRQHRLFCADPKEQWVKDAMQHLDRQAAALTRNGGTFEKQIGEVKPRTTPAAGGMDESVVLEPEATGESSSLEPTPSSQEAQRALGTSPELPTGVTGSSGTRLPPTPKAQDGGPVGTELFRVPPVSTAATWQSSAPHQPGPSLWAEAKTSEAPSTQDPSTQASTASSPAPEENAPSEGQRVWGQGQSPRPENSLEREEMGPVPAHTDAFQDWGPGSMAHVSVVPVSSEGTPSREPVASGSWTPKAEEPIHATMDPQRLGVLITPVPDAQAATRRQAVGLLAFLGLLFCLGVAMFTYQSLQGCPRKMAGEMAEGLRYIPRSCGSNSYVLVPV
B2: CCL4; sequence looked up; chain APMGSDPPTACCFSYTARKLPRNFVVDYYETSSLCSQPAVVFQTKRSKQVCADPSESWVQEYVYDLELN
UniProt P28472, sequence (whole entry, unmodified, looked up): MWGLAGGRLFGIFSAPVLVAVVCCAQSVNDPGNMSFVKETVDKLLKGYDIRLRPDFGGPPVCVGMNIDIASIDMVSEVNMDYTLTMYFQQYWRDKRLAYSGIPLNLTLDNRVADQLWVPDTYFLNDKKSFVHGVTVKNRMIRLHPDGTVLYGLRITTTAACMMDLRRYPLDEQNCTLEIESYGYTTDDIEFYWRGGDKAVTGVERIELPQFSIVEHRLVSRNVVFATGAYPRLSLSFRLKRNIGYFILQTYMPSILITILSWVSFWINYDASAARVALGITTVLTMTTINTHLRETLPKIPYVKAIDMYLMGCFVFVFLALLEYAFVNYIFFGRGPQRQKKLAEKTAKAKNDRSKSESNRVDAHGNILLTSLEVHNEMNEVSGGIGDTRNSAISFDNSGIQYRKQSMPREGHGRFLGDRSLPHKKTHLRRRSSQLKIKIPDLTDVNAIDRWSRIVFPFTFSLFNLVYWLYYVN
UniProt P14867, sequence (whole entry, unmodified, looked up): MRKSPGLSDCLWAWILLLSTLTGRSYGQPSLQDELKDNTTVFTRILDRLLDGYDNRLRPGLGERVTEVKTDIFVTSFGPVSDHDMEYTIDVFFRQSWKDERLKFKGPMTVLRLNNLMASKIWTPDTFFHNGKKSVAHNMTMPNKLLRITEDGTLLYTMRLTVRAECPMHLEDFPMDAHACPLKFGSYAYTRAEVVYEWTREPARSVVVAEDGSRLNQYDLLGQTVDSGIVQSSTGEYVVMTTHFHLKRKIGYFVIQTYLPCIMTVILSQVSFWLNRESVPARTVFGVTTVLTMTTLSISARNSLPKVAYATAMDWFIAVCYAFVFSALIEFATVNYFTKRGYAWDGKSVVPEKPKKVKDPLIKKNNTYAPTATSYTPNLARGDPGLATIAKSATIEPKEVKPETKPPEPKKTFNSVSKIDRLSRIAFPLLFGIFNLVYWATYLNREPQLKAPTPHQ

Molecule | tested on | test | system | setting | scale | quantity | value
B1 (CX3CL1, human) | US28 D15A | binding, radioligand competition |  |  |  | Kd | 0.7 nM
AEQNPIYWARYADWLFTTPLLLLDLALLVDADEGT (pHLIP (Halobacterium salinarum)) |  | NMR, refers to: Asp31 | peptide, lipid membrane | numbering of the source |  | pKa | 6.5
CCL3 | US28 E13A | binding, radioligand competition |  |  |  | Kd | 1.2 nM
cyclopropyl methoxycarbonyl metomidate | GABA-A receptor alpha-1/beta-3, with gamma-2 subunit (GABRA1/GABRB3, Homo sapiens, UniProt P14867+P28472, L291T) | ion current, agonist | Xenopus oocytes | direct activation | reference: 100 µM GABA peak current | EC50 | 3800 nM
B2 (CCL4) | US28 Y16F | binding, radioligand competition |  |  |  | Kd | 10.2 nM
pegcetacoplan |  |  | cynomolgus monkey | subcutaneous, 9 months daily |  | NOAEL | 7 mg/kg/day
KKTKPTPPPKPSHLK | yeast Abp1 SH3 domain | binding | peptide |  |  | Kd | 770 nM
CCL5 | US28 T12A | binding, radioligand competition |  |  |  | Kd | 2.3 nM

For quick reference, copied from above:
Molecule | tested on | test | system | setting | scale | quantity | value
AEQNPIYWARYADWLFTTPLLLLDLALLVDADEGT (pHLIP (Halobacterium salinarum)) |  | NMR, refers to: Asp31 | peptide, lipid membrane | numbering of the source |  | pKa | 6.5
